Measured values from different studies.
Protocols differ between the studies behind these lines. “And” joins repeats or separate records; there may be more than shown. Numbers after ± are the reported error.

CN(C)C(=N)N=C(N)N — subjects with adverse event (refers to: nervous system disorders; healthy men; oral, dose not given, 8 days, treatment-emergent, crossover trial): 13.6%
O=C(NC[C@H]1CN(c2ccc(N3CCOCC3=O)cc2)C(=O)O1)c1ccc(Cl)s1 — dose-adjusted solubility (FaSSIF; literature solubility over dose): 0.00099 mL⁻¹
COc1ccc2c(=O)n(C)c(-c3ccccc3)nc2c1 — tissue/plasma ratio (Sprague-Dawley rat, male, stomach; oral, 30 mg/kg, 4 h; baseline: stomach over plasma): 20.2
Cn1cc(Nc2nccc(-c3ccc4c(c3)CN(C3COC3)CC[C@H]4NC(=O)c3cn(C(C)(C)C)nn3)n2)cn1 — naive B cell count change (human, whole blood; 150 mg twice daily, day 7; baseline: pre-dose baseline): 74.3%
COc1cc2c(c(OC)c1OC)C(=O)c1c(cc(C)c(O)c1OC)C2=O — viability (HK-2 co-cultured with HepaRG; MTT; 16.67 µM, 48 h; baseline: untreated control): 84.5 ± 4.86%
CNC(=O)c1ccc(-c2cnc3ncc(Cc4ccc5ncccc5c4)n3n2)cc1F — patients with adverse event (refers to: Insomnia, all grades; cancer patients; oral, dose not given, dose escalation, any causality): 11%
CC(C)(C(=O)N1CCOc2c(C#N)cncc2C1)C(F)F — subjects with TEAE (refers to: nervous system disorders; healthy humans, both sexes; oral, 10 mg single dose): 0%
CC1(C)CC[C@]2(NC(=O)C(C)(F)F)CC[C@]3(C)[C@H](C(=O)C=C4[C@@]5(C)C=C(C#N)C(=O)C(C)(C)[C@@H]5CC[C@]43C)[C@@H]2C1 — trough plasma concentration (human, plasma; oral, 150 mg once daily, day 21 predose, median): 32 ng/mL
Cc1nc(-c2ccc(OCC(C)C)c(C#N)c2)sc1C(=O)O — body weight (KM mouse, chronic hyperuricaemia model; dose not given, day 22): 31.9 g and 40 g and 43.6 g and 33.3 g and 36.1 g and 37.6 g
Cc1nc2cccc(OCC(C)(C)C(=O)NC(C)C)c2c(N)c1C(=O)O — Cmax ratio (female Sprague-Dawley rat, plasma; dietary, 60 mg/kg/day; baseline: day 90 over day 7): 1.23
C=CC(=O)Nc1cc(Nc2ncc(C(=O)OC(C)C)c(-c3cn(C)c4ccccc34)n2)c(OC)cc1N(C)CCN(C)C — intercompartmental clearance (two-compartment PK model; mouse): 13 L/h
O=C(O)c1cc(O)c2c(c1)C(=O)c1cccc(O[C@@H]3O[C@H](CO)[C@@H](O)[C@H](O)[C@H]3O)c1C2=O — cell viability (HK-2 co-cultured with HepaRG; MTT; 33.33 µM, 48 h; baseline: untreated control): 80.5 ± 4.03%
COc1ncc(-c2nc3c(n2C(C)C)[C@H](c2ccc(Cl)cc2)N(c2cc(Cl)cn(C)c2=O)C3=O)c(OC)n1 — AUC(0-t) geometric mean (human patients, plasma; oral, 15 mg, 0-24 h, low-dose arm, cycle 1 day 1): 1550 ng·h/mL
O=C(Nc1ccc(OC(F)(F)Cl)cc1)c1cnc(N2CC[C@@H](O)C2)c(-c2ccn[nH]2)c1 — grade ≥3 event rate (per laboratory record, refers to: platelet decrease; human patients; oral, dose not given): 6%
C=CC(=O)N(C)CCOc1c(N)ncnc1-c1cc(F)cc(NC(=O)c2ccc(C3CC3)cc2F)c1C — AUC(0-inf) per dose (human; oral, 50 mg, day 3, arithmetic mean, given alone): 5.29 ng·h/mL/mg
CSc1cc(C)nc(SC)c1NC(=O)CN1CCN(CCSc2nc3ccccc3[nH]2)CC1 — concentration (mouse Crl:CD1 (ICR), female, olfactory bulb; intranasal, 50 µL of 3.24 mg/mL solution, daily for 7 days, 120 min, 0.01 N HCl solution vehicle): 2.6 ng/g
CCCCCCOC(=O)NC(=N)c1ccc(NCc2nc3cc(C(=O)N(CCC(=O)OCC)c4ccccn4)ccc3n2C)cc1 — participants with TEAE dry skin (human; oral, 75 mg, compound alone): 4.2%
NC[C@@]1(CC(=O)O)[C@@H]2CC[C@H]3C[C@@H]2[C@@H]1C3 — AUC(0-inf) unbound (human, normal renal function, plasma; dose not given, geometric mean): 1610 ng·h/mL
OCc1nc2ccc(NCc3ccc(C(F)(F)F)cc3)cc2[nH]1 — clearance (Balb/c mice male, plasma; intravenous, 1 mg/kg): 61 ± 6.67 mL/min/kg
